Measurements from different studies.
Each numbered part is a random draw from the data of one study; scales do not carry over between parts. Positions count from the first letter of the parent shown.

Study 1 — technique: RNA Bind-n-Seq; molecule type: RNA; sample: in vitro; concentration: 365 nM; relative to: no-protein control; reading: higher = stronger binding
Target: RNA binding protein fox-1 homolog 2, RRM domain, GST-SBP tag (RBFOX2, Homo sapiens, UniProt O43251-10, residues 100-194)
Setting: natural RNA segment, single round, ends assumed
Shared flanks, not repeated: GGGAGUUCUACAGUCCGACGAUC … UGGAAUUCUCGGGUGCCAA
Construct (chain): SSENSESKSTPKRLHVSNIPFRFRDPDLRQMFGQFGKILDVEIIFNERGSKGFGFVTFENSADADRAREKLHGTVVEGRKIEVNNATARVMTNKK
Sequence	RBNS enrichment (R)
GAACUUGAGUCUUUUGCCUUGCCUUUAUUACAUGUAAAUUUUGAAUCUCGUGACCAGUGAUUUGGAUUUUAUUUUGUAUUUACAGGGUCUGUCAUUAAUAAUAAUUAACC	0.383
UCAUUCAAAAAGGCUUCCAAGGCCAAUUCUGUCUUGAAGUCAAUGCAUGUAUUUACUGUUUGACAGUAAACCCGCUCUGCCUUCUCCACGUCCAAGGCUGUGCAUUCGUC	1.21
UCAGGCAUAUAUAUCUGUCUGUUAGCAAUGAUUAUUACAUCAUCAGAUCAGCAUGUGCUAUACUCCCUGCAAGAAAUAUACUGACAUGAACAGGCAGUUCUUGGAGAAGA	2.86
GUUGGGCAUUCAAGGGAAUGGAAGAAAACAAACCACAUGCCUUUAACAGAUGAACUGUAAUGACGACCUGCUAACUGCUAGCCUUCAGCGCUAUCUGUUCCCUCACACAG	0.417
UUAAGCACUAAAAAUUUUUUCAUAACCUUUCAUAAUAAAGUUUAAUAAUAGGUUUAUUAACUGAAUUUCAUUAGUUUUUUAAAAGUGUUUUUGGUUUGUGUAUAUAUACA	0.798
CCAAGUCCUAGCUCCUCCUCCUGGGCUAUAUUCCUGACAAAAGUUCCAUAUAGACACCAAGGAGGCGGAGGCGCUCCUCCCUGCCUCAGUGGCUCUGGGUACCUGCAAGC	0.339
GAUACCUUUAAGCCAGUGAAGGAUACUUGCGAUAGAAUCAUCCGCAACUCAGUGGCCAUUCUUCUGCCUUCCCAGACCUUAGUUUUAUAAAGCAUUGUCUGUUCCAGAGU	0.4
GCGCGGUGGCUCACGCCUGUAAUCCCAGCAGUUUGGGAGGUCGAGGUAGGUGGAUCACCUGAGGUCGGGAGUUCGAGACCAACCUGACCAACAUGGAGAAACCCUGUCUC	0.238

Study 2 — technique: DHFR PCA, deep sequencing; sample: yeast; with: (+)-ABA 0.032 µM; relative to: wild-type fitted maximum; reading: higher = stronger binding
Target: ABI1, truncated, D143A, DHFR fusion (Arabidopsis thaliana)
Setting: methotrexate growth selection, single substitutions
Starting sequence: PYL1, truncated, DHFR fusion (Arabidopsis thaliana); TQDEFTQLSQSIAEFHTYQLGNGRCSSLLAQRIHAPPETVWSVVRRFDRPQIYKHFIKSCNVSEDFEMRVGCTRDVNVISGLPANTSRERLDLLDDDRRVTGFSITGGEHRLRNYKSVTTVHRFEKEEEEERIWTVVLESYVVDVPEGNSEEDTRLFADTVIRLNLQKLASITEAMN
Substitution	relative binding score [%]
P37L	-3.58
V44D	1.13
I52Q	16.7
R163A	18.1
H55V	49.1
H16L	-1.23
L164V	8.6
L91F	-1.06

Study 3 — technique: RNA Bind-n-Seq; molecule type: RNA; sample: in vitro; concentration: 200 nM; setting: whole 134-nt RNA, ends assumed; with: 150 mM LiCl; relative to: input library; reading: higher = stronger binding; each molecule: 7-deaza-guanosine replaces G
Target: Ras GTPase-activating protein-binding protein 1, full length (G3BP1, Homo sapiens, UniProt Q13283)
Chain of UniProt Q13283 (whole entry, looked up): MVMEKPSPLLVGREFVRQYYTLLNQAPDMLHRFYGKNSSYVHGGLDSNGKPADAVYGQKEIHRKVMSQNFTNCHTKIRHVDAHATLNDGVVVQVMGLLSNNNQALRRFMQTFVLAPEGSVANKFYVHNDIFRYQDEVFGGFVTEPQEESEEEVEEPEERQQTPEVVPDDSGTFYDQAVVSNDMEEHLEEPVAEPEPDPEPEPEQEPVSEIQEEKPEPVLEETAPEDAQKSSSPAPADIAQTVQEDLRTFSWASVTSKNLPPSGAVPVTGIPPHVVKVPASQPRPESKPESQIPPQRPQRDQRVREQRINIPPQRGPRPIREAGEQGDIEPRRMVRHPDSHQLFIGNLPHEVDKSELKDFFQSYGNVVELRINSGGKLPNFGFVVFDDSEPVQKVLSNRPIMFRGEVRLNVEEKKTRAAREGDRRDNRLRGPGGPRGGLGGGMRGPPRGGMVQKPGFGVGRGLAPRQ
Shared flanks, not repeated: GGGAGUUCUACAGUCCGACGAUC … UGGAAUUCUCGGGUGUCAAGG
Sequence	log2 enrichment
CACAGACAACACGCACCCACACAGACACAGAAAGAAGGGGUUGGGAUGGGGACAGGGUGCACAGCAGGGCGGGGUAGGACCCCAGCCCCU	0.2
AGUCCUGUGCUACACAUCGUAUGUACCGAAUCGGGGAGGGGAGGGGUUUUUUUGGGGAAAGUAUUAUGUUACGCCGUUCGGAUCUGCACU	0.623
UAACUUUAGAGGAGGAUCUGAUGGAUAUGGCAGUGGACGUGGAUUUGGGGAUGGCUAUAAUGGGUAUGGAGGAGGACCUGGGGGUGGCAA	-0.16
GUCCUGUGCUACACAUCGUAUGUACCGAAUCGGGGAAAAAGGGGAAAAAGGGGUGGGGAAAGUAUUAUGUUACGCCGUUCGGAUCUGCAC	-0.821
CUCAAGUCCUGUGCUACACAUCGUAUGUACCGAAUCGGAAAGGUGGUUUUUGGAAAGUAUUAUGUUACGCCGUUCGGAUCUGCACUUCCA	0.146
CCUCAAGUCCUGUGCUACACAUCGUAUGUACCGAAUCGGAGGUUUGGUUUGGAAAGUAUUAUGUUACGCCGUUCGGAUCUGCACUUCCAG	-0.708
GUCCUGUGCUACACAUCGUAUGUACCGAAUCGGGCCCCCGGGCCCCCGGGCCCCCGGGAAAGUAUUAUGUUACGCCGUUCGGAUCUGCAC	-1.97
GCAGGAAGUAAAAACAAAUGGAUAUGCUUCGGAUAGUGGCAGGGGUGGGGGUUGCUAAGGAAAGGGUGGGAUGGGAGUGGGUAAAGAGUU	0.14
CCUGUGCUACACAUCGUAUGUACCGAAUCGGGGAAAAAAAGGAAAAAAAGGGAAAAAAAGGAAAGUAUUAUGUUACGCCGUUCGGAUCUG	0.296
UCAAGUCCUGUGCUACACAUCGUAUGUACCGAAUCGGUUUGGUGGAAAAAAAGGAAAGUAUUAUGUUACGCCGUUCGGAUCUGCACUUCC	-0.122
UCAAGUCCUGUGCUACACAUCGUAUGUACCGAAUCGGGCCGGGGCCGGGGCCGGAAAGUAUUAUGUUACGCCGUUCGGAUCUGCACUUCC	0.102

Mixed results
Molecule	target	assay	system	conditions	scale	measurement	result
PhoQ, residues 284 288 289 292 302 303 TNSAEL	PhoP, residues 12 14 15 18 19 SMASL (Escherichia coli, UniProt P23836)	Sort-seq, measured: YFP reporter	E. coli	PhoQ-PhoP variant library, with: 10 µM Mg2+	relative to: high Mg2+ state, higher = stronger signaling	fold induction	2.14
